Published values pooled from the literature.
Parts stem from different laboratories: compare values within a part only.

Set 1 — technique: universal PBM; form: double-stranded DNA, one strand shown; sample: in vitro; tested at: 600 nM; direction: higher = stronger binding; endpoint: E-score
Target: Sal-like protein 4, full length isoform A (SALL4, Homo sapiens, UniProt Q9UJQ4, residues 1-1053)
UniProt Q9UJQ4, sequence (whole entry, looked up): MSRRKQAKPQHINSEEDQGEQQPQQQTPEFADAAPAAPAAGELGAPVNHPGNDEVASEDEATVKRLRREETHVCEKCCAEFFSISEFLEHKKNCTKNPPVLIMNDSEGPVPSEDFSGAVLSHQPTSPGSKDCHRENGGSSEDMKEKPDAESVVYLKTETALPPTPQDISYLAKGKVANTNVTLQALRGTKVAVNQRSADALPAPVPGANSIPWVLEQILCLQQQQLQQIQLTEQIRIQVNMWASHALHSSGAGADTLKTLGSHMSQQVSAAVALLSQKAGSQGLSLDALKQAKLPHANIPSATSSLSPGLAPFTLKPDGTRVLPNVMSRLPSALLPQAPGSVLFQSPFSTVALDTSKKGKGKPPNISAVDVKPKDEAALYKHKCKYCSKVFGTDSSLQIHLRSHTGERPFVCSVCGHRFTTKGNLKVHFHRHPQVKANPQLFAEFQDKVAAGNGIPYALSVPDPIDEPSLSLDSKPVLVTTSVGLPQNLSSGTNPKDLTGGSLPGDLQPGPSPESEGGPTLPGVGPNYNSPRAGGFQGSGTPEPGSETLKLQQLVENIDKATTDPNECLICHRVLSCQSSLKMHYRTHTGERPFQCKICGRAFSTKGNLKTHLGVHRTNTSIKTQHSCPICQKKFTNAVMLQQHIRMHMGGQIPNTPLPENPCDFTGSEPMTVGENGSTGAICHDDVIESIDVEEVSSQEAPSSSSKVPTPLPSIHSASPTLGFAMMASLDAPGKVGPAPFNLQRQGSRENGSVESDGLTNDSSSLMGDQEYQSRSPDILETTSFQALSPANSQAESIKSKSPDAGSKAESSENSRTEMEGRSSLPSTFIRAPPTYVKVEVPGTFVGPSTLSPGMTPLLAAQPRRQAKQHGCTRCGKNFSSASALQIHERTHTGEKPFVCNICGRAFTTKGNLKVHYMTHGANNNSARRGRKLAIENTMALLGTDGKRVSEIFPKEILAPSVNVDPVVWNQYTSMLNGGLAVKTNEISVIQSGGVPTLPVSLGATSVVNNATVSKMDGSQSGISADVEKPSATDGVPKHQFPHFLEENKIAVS
Notes: 8-mer, flanks averaged, mean of replicates
CCGAAAGC: -0.195
ATGCGATG: -0.0269
CGTCGTGA: -0.193
CGAGGGCG: -0.242

Set 2 — technique: protein binding microarray; form: double-stranded DNA, one strand shown; sample: in vitro; tested at: not given; baseline: not given; direction: higher = stronger binding; endpoint: E-score
Target: Histone acetyltransferase KAT6A, both winged helices, GST fusion (KAT6A, Homo sapiens, UniProt Q92794, residues 1-181)
Notes: 8-mer, flanks averaged, mean of 2 arrays, mostly near background
Construct (chain): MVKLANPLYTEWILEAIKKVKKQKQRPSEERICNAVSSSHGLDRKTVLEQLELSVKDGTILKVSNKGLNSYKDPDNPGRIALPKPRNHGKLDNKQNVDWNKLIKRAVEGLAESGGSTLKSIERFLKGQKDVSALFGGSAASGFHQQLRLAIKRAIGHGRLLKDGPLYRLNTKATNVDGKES
CTAAGTAC: -0.0426
ACACAGTC: -0.107
GATGAGGA: -0.146
CTGATCTC: -0.0519
CGTACGGA: 0.25

Set 3 — technique: aptamer microarray, sandwich; form: DNA with 2'F-ANA; sample: in vitro; tested at: 200 nM; added: Cy3 exosite-II aptamer, 400 nM; direction: higher = stronger binding; endpoint: mean fluorescence intensity
Target: Prothrombin, mature alpha-thrombin (F2, Homo sapiens, UniProt P00734)
Notes: whole 15-mer aptamer, many near background
GGTTGGTGTGGTTGG (2'F-ANA at 1 3 4 5 6 7 10 11 12 14 15): 54.5 a.u.
GGTTGGTGTGGTTGG (2'F-ANA at 1 2 3 4 5 6 8 11 12 14 15): 47.2 a.u.
GGTTGGTGTGGTTGG (2'F-ANA at 2 4 5 9 10 12 13 14 15): 44.5 a.u.
GGTTGGTGTGGTTGG (2'F-ANA at 2 10 11 12 15): 167 a.u.

Single results of other studies
PhoQ, residues 284 288 289 292 302 303 SIHMAM  fold induction (PhoP, residues 12 14 15 18 19 NHFRA (Escherichia coli, UniProt P23836); Sort-seq, measured: YFP reporter; E. coli; PhoQ-PhoP variant library, added: 10 µM Mg2+; baseline: high Mg2+ state, higher = stronger signaling): 1.36

A few entries again (set 3):
GGTTGGTGTGGTTGG (2'F-ANA at 2 10 11 12 15): 167 a.u.
